Published values gathered from unrelated publications.
Each line is one published result; not all experiments were run side by side. ± gives the spread as reported.
PPARG: Peroxisome proliferator-activated receptor gamma (PPARG, Homo sapiens, UniProt P37231)
Chain of UniProt P37231 (whole entry, looked up): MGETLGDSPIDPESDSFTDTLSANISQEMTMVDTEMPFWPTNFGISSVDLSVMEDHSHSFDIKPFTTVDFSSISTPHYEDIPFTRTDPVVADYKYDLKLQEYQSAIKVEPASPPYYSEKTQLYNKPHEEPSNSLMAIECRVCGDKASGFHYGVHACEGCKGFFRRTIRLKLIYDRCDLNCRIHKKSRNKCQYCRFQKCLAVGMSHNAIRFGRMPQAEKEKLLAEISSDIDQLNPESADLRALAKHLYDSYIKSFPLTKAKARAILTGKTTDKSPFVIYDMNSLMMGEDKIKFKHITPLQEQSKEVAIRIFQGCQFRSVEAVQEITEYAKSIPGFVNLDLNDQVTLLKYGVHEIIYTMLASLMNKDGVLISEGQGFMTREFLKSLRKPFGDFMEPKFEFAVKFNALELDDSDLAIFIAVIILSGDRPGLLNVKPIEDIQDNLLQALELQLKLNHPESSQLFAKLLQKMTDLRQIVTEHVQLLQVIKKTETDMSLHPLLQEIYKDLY
Rhomboid protease AarA: Rhomboid protease AarA (Providencia stuartii, UniProt P46116)
Chain of UniProt P46116 (whole entry, looked up): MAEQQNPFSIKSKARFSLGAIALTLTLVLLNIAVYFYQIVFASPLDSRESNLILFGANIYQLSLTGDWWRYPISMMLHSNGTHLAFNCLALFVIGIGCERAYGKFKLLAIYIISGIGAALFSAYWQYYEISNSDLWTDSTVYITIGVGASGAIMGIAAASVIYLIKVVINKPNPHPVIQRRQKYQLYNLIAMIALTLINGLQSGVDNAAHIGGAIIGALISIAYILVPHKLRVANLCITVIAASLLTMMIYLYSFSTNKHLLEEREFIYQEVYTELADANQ
Chain of UniProt P08172 (whole entry, looked up): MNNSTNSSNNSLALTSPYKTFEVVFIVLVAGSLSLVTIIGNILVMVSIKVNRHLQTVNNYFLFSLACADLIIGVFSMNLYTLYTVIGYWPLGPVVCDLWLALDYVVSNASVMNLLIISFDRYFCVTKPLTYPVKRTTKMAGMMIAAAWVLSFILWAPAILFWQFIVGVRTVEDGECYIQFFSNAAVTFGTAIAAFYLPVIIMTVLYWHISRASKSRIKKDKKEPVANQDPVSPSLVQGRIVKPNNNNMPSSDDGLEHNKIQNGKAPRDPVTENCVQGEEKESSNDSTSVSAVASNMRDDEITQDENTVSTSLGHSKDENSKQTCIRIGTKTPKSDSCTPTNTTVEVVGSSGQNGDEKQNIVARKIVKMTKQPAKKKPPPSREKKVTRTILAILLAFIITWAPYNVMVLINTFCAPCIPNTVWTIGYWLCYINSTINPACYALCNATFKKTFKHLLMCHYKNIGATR
Chain of UniProt P40306 (whole entry, looked up): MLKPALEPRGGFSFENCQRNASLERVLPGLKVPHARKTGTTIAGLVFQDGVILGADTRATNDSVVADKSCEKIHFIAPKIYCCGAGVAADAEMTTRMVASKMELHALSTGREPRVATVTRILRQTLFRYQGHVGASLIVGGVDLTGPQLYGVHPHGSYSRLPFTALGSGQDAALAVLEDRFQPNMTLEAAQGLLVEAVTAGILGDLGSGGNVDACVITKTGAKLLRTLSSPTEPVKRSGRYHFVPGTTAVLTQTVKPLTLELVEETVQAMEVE
Chain of UniProt P43358 (whole entry, looked up): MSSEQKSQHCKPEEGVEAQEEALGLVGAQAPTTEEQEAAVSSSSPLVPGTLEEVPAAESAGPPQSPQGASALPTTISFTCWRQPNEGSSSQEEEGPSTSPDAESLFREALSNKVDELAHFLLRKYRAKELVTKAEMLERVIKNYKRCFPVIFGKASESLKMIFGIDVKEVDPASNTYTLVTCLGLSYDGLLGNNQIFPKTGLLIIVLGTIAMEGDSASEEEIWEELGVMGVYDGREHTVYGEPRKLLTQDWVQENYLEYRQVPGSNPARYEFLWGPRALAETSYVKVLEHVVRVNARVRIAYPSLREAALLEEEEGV
Chain of UniProt Q9NXS2 (whole entry, looked up): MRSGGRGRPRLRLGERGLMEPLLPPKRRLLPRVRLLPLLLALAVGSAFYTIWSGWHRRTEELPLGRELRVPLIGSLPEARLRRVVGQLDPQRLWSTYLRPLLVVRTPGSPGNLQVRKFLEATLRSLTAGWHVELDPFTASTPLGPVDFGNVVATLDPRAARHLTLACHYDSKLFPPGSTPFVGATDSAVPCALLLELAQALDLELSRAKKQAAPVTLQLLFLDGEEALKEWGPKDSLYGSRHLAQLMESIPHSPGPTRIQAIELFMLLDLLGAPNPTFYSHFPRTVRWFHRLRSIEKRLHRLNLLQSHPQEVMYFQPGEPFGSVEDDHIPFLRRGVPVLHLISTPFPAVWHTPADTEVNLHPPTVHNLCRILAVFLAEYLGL
Chain of UniProt P32245 (whole entry, looked up): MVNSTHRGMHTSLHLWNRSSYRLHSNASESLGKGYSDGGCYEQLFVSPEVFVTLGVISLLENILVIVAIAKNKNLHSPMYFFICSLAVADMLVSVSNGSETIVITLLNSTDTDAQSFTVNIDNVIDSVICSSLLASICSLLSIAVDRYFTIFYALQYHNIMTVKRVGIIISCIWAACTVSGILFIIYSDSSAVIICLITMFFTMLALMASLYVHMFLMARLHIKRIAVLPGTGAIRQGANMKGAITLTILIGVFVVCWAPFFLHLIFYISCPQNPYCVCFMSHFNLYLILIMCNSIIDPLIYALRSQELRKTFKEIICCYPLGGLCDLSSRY
Chain of UniProt Q13547 (whole entry, looked up): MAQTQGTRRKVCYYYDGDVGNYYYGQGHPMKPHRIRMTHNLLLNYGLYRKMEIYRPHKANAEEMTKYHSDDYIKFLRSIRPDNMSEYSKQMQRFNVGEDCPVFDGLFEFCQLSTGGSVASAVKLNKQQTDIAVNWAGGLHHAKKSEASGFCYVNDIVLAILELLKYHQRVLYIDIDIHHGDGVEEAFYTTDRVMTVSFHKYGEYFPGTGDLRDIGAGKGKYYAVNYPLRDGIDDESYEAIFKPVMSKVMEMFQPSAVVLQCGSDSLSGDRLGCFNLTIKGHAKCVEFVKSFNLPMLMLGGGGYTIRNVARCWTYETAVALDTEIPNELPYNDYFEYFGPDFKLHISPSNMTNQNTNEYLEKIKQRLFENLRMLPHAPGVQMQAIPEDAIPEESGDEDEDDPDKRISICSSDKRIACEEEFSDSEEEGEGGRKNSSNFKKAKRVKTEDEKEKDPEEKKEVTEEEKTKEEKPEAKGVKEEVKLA
Chain of UniProt P28065 (whole entry, looked up): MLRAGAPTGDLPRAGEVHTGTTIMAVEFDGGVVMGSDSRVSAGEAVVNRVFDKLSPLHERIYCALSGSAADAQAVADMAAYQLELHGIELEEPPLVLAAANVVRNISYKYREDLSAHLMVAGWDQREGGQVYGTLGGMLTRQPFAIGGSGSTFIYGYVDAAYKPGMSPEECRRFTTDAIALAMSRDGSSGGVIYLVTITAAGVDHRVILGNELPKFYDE

The IC50 of `Cc1c(Cc2cccc(OC(C)(C)C(=O)O)c2)c2ccc(C(=O)N[C@@H](C)c3ccc(C(F)(F)F)cc3)cc2n1C` is reported as 1 nM (PPARG; ligand displacement, TR-FRET).
For `O=C(Nc1ccccc1OCC(=O)N1CCOCC1)C(C(F)(F)F)C(F)(F)F`, the IC50 was 21000 nM (Rhomboid protease AarA; enzyme activity, inhibitor, fluorescence).
`CC(=O)N[C@@H](CCCNC(=N)N)C(=O)N[C@H]1CSSC[C@@H](C(N)=O)NC(=O)[C@H](Cc2c[nH]c3ccccc23)NC(=O)[C@H](CCCNC(=N)N)NC(=O)[C@@H](Cc2ccc3ccccc3c2)NC(=O)[C@H](Cc2c[nH]cn2)NC(=O)[C@@H](C)NC1=O` has an IC50 of 14.2 nM (Melanocortin receptor 4 (MC4R, Homo sapiens, UniProt P32245); cAMP, antagonist, split-luciferase cAMP sensor; 12 min, with: α-MSH 70 nM (EC90)).
`Cc1c(Cc2ccc(OC(C)C(=O)O)cc2)c2ccc(C(=O)NC(C)c3cccc(C(F)(F)F)c3)cc2n1C` (mixture of isomers) has an IC50 of 82 nM (PPARG; ligand displacement, TR-FRET).
Under “percent of control”, `C=CC(=O)Nc1cccc(Cn2ncc3cnc(Nc4cnn(CCOC)c4)nc32)c1` is recorded as 100% (DAPK2 human; binding, KINOMEscan; 100 nM; lower = stronger binding).
`Cc1cncn1Cc1ccc(Nc2cccc(F)c2)cc1` gave an IC50 of 890 nM (Glutaminyl-peptide cyclotransferase-like protein (Homo sapiens, UniProt Q9NXS2)).
`C[C@H](NC(=O)[C@H](Cc1c[nH]c2ccccc12)NC(=O)[C@H](CO)NC(=O)[C@H](Cc1ccc(O)cc1)NC(=O)[C@@H](N)CC(=O)O)C(=O)N[C@@H](CCC(=O)O)C(=O)N[C@@H](CCC(=O)O)C(=O)N[C@@H](CCC(=O)O)C(=O)N[C@@H](CC(=O)O)C(=O)N[C@@H](CCC(=O)O)C(=O)O`: “residual peak intensity” ~75% (Xenopus laevis; TROSY-HSQC NMR titration; 25 °C, labelled H2A or H2B; reference: unbound state).
With `Nc1ncc(-c2cc(-c3cnn(CC(F)(F)F)c3)ncc2F)nc1C(=O)NC1CNCC(F)C1` (stereo not drawn) the remaining binding was 58% (BRAF; KINOMEscan; 1 µM; reference: DMSO control).
`O=C(NCc1ccccc1Cl)C(C(F)(F)F)C(F)(F)F` has an IC50 of 9000 nM (Rhomboid protease AarA; enzyme activity, inhibitor, fluorescence).
`CN1CCCC1C(=O)NC(Cc1ccc(-n2cccn2)cc1)B(O)O` (stereo not drawn) has an IC50 of 6300 ± 2100 nM (Proteasome subunit beta type-9 / Proteasome subunit beta type-10 (Homo sapiens, UniProt P28065+P40306); β1i activity, inhibitor; immunoproteasome, with: Ac-PAL-AMC).
`CCN(CC)CC#CCNc1ccnc2cc(Cl)ccc12` has a mean revertants of 15 revertants/well (Salmonella typhimurium; mini-Ames test; TA98; 125.0 µg/well, with rat liver S9).
The fold regulation of `CCN(CC)CC(=O)Nc1cccc(-n2cc(-c3ccc4ccc(-c5cn(-c6cccc(NC(=O)CN(CC)CC)c6)nn5)cc4c3)nn2)c1` is reported as -6.62 (RCC4; PCR angiogenesis array, refers to: ANGPTL4; 5 x IC50, 6 h, normoxia; reference: untreated).
With `CCn1c(C)c(Cc2ccc(Cl)c(O[C@H](C)C(=O)O)c2)c2ccc(C(=O)N[C@@H](C)c3ccc(C(C)(C)C)cc3)cc21` the IC50 was 7.17 nM (PPARG; ligand displacement, TR-FRET).
`CC[C@H](C)[C@@H]1NC(=O)[C@H](Cc2ccc(O)cc2)NC(=O)CSC[C@@H](C(N)=O)NC(=O)[C@H](CC(N)=O)NC(=O)[C@H](Cc2c[nH]cn2)NC(=O)[C@H](Cc2ccc(O)cc2)NC(=O)[C@H](CC(=O)O)NC(=O)[C@H](CC(C)C)NC(=O)[C@H](CC(C)C)NC(=O)[C@H](CCCNC(=N)N)NC1=O` gave an IC50 of 84 ± 6.4 nM (Melanoma-associated antigen 4, MAGE homology domain (Homo sapiens, UniProt P43358); binding, inhibitor, TR-FRET displacement; with: Alexa647-MTP-1).
With `Cc1nc2c(F)cc(-c3nc(Nc4ccc(NC(=O)CCCC(=O)NO)cc4)ncc3F)cc2n1C(C)C` the IC50 was 91 nM (Histone deacetylase 1 (HDAC1, Homo sapiens, UniProt Q13547); enzyme activity, inhibitor).
For `COC1CN([C@H]2CC[C@H]([C@@]3(C)Oc4c(Cl)cc(C(=O)NCc5c(SC)cc(C)[nH]c5=O)c(C)c4O3)CC2)C1`, “log2 fold change” read 5.93 (RNA-seq, refers to: SDC2; human, whole blood; dose not given, 24 h; reference: pretreatment baseline).
With `Cc1c(Cc2ccc(O[C@H](C)C(=O)O)c(Cl)c2)c2ccc(C(=O)N[C@@H](C)c3ccc(C(C)(C)C)cc3)cc2n1C` the IC50 was 109 nM (PPARG; ligand displacement, TR-FRET).
`O=C(CCNC(=O)CNC(=O)CC(c1ccccc1)(c1ccccc1)c1ccccc1)NC[C@@H]1CCCN(C[C@H]2C[C@H](F)C2)C1` has an IC50 of > 30000 nM (Muscarinic acetylcholine receptor M2 (CHRM2, Homo sapiens, UniProt P08172); ligand displacement, radioligand; cell membranes).
With `O=C1CC(c2ccccc2)N1S(=O)(=O)Cc1ccccc1` (stereo not drawn) the IC50 was 371000 nM (Rhomboid protease AarA; enzyme activity, inhibitor, fluorescence).
With `CNS(=O)(=O)Nc1nccc(Cc2c(C)c3ccc(Oc4ncccc4F)cc3oc2=O)c1F` the IC50 was > 1000 nM (786-O; cell viability, CellTiter-Glo; 7 days).
`Cc1c(Cc2ccc(OC(C)C(=O)O)cc2Cl)c2ccc(C(=O)NC(C)c3ccc(C(C)(C)C)cc3)cc2n1C` (stereo not drawn) has an IC50 of 1180 nM (PPARG; ligand displacement, TR-FRET).
For `O=C(Cc1ccccc1)NCCOc1ccccc1NC(=O)C(C(F)(F)F)C(F)(F)F`, the IC50 was 12500 nM (Rhomboid protease AarA; enzyme activity, inhibitor, fluorescence).
The IC50 of `Cc1nc(Nc2ncc(C(=O)Nc3c(C)cccc3Cl)s2)cc(N2CCN(CCNC(=O)c3ccc(C(=O)c4ccc(OCC(=O)NCCOCCOCCCCCCCl)cc4)cc3)CC2)n1` is reported as < 4 nM (Tyrosine-protein kinase HCK (HCK, Homo sapiens, UniProt P08631)).
`O=C1NC2(CC2)COc2ncc(F)cc2[C@H]2COCCN2c2ccn3ncc1c3n2` gave a numerical aberrations of 0% (CHL; 300 µg/mL, 4 h, with rat liver S9).
